Measurements pooled from the literature.
Each numbered part is a random draw from the data of one study; scales do not carry over between parts.

Study 1
Target: Ras GTPase-activating protein-binding protein 1, full length (G3BP1, Homo sapiens, UniProt Q13283)
Chain of UniProt Q13283 (whole entry, looked up): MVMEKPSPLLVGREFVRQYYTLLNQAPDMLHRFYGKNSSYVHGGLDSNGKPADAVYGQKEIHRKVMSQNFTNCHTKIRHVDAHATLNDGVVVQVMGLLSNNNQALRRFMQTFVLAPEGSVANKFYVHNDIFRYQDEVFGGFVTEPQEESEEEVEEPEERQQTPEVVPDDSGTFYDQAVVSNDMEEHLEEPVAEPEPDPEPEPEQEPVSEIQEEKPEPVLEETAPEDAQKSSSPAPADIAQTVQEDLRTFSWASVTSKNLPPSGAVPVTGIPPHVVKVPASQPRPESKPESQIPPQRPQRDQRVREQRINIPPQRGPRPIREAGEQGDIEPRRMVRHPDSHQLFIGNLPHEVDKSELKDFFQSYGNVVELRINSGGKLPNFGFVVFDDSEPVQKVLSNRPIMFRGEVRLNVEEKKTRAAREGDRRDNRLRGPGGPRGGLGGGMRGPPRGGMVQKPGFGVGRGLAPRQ
Technique: RNA Bind-n-Seq
Form: RNA
Medium: in vitro
Concentration: 200 nM
Setting: whole 134-nt RNA, ends assumed
Added: 150 mM LiCl
Reference: input library
Direction: higher = stronger binding
Each molecule: 7-deaza-guanosine replaces G
All sequences stand within: GGGAGUUCUACAGUCCGACGAUC … UGGAAUUCUCGGGUGUCAAGG
`UGGGAGGUGGAUUUUGUUUAUUUUUUUAGCUCAUUUCCAGGGGUGGGAAUUUUUUUUUAAUAUGUGUCAUGAAUAAGGUUGUUUUUGAAA` gave a log2 enrichment of -0.0591.
With `AGUCCUGUGCUACACAUCGUAUGUACCGAAUCGGGUUUUUGGGAAAAAAAGGGAGGGAAAGUAUUAUGUUACGCCGUUCGGAUCUGCACU` the log2 enrichment was -1.83.
For `UCCUGUGCUACACAUCGUAUGUACCGAAUCGGUUUUUUUGGUUUUUUUGGUUUUUUUGGGAAAGUAUUAUGUUACGCCGUUCGGAUCUGC`, the log2 enrichment was 0.248.
`CAAGUCCUGUGCUACACAUCGUAUGUACCGAAUCGGAAAGGUUUGGAAAAAAAGGAAAGUAUUAUGUUACGCCGUUCGGAUCUGCACUUC` has a log2 enrichment of -1.14.
For `AGUCCUGUGCUACACAUCGUAUGUACCGAAUCGGGGAGGGGUUUUUGGGGUUUGGGGAAAGUAUUAUGUUACGCCGUUCGGAUCUGCACU`, the log2 enrichment was -0.279.
With `UGGCCCUGGUGGCAUGCGGGGAGGAAGAGGUGGCCUCAUGGAUCGUGGUGGUCCCGGUGGAAUGUUCAGAGGUGGCCGUGGUGUAGACAG` the log2 enrichment was -0.634.
For `CCUGUGCUACACAUCGUAUGUACCGAAUCGGGGUUUUUGGGGUUUUUGGGGAAAAAGGGGAAAGUAUUAUGUUACGCCGUUCGGAUCUGC`, the log2 enrichment was 0.586.
With `GUCCUGUGCUACACAUCGUAUGUACCGAAUCGGGUUUUUUGGUUUUUUGGGUUUUUUGGAAAGUAUUAUGUUACGCCGUUCGGAUCUGCA` the log2 enrichment was -0.77.
With `UGGGAGGUGGAUUUUGUUUAUUUUUUUAGCUCAUUUCCAGGGGUGGGAAUUUUUUUUUAAUAUGUGUCAUGAAUAAAGUUGUUUUAGAAA` the log2 enrichment was -0.206.
`UGGCCCUGGUGGCAUGCGGAGAGGAAGAGGUGGCCUCAUGGAUCGUGGUGGUCCCGGUGGAAUGUUCAGAGGUGGCCGUGGUGGAGACAG` has a log2 enrichment of 0.096.
For `CACAGACAACACGCACCCACACAGACACAGAGGGAAGGGGUUGGGAUGGGGACAGGAUGCACAGCAGGGCGGGGUAGGACCCCAGCCCCU`, the log2 enrichment was 0.054.

Study 2
Target: Sal-like protein 4, full length isoform B (SALL4, Homo sapiens, UniProt Q9UJQ4-2, residues 1-616)
Technique: universal PBM
Form: double-stranded DNA, one strand shown
Medium: in vitro
Concentration: not given
Setting: 8-mer, flanks averaged, mean of replicates
Direction: higher = stronger binding
Residues (chain): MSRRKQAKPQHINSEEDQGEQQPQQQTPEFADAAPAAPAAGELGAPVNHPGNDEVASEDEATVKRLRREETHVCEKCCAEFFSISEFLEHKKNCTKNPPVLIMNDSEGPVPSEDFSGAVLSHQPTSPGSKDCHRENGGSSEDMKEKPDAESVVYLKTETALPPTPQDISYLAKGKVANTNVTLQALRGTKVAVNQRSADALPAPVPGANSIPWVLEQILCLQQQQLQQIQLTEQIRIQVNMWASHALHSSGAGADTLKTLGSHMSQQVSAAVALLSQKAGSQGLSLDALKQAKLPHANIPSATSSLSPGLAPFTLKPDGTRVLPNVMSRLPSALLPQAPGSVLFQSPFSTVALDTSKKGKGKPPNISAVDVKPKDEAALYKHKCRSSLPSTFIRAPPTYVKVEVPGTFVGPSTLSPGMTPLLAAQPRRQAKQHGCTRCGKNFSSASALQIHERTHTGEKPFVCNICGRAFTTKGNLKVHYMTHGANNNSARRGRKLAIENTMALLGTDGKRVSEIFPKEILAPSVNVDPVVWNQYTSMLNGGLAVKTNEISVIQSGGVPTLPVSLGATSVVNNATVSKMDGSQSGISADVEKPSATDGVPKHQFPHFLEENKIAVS
`CCGAGCAC` has an E-score of -0.174.
With `CCCATAGG` the E-score was -0.0378.
With `AGCTTCCT` the E-score was 0.0253.
With `TCTTGTCA` the E-score was 0.0451.
The E-score of `AGGGCAAT` is reported as -0.067.
The E-score of `ATTGGATC` is reported as 0.122.
`GAGGTTAA` gave an E-score of 0.106.
`GCGCGCGC` has an E-score of -0.166.
For `AAATATCG`, the E-score was 0.256.
For `ACCCCCTC`, the E-score was -0.0988.
With `CCGCTTCG` the E-score was -0.304.
With `ATTTACGC` the E-score was 0.159.
For `TATTCCGA`, the E-score was 0.188.
For `GGGATTAA`, the E-score was -0.0134.
With `AGGTTAGG` the E-score was -0.094.
`AATTCCTA` has an E-score of 0.0996.
The E-score of `ATCATTCC` is reported as 0.007.
For `ATTTGGAC`, the E-score was 0.0894.
For `AAGCTTCA`, the E-score was -0.0526.
With `AGCGGACT` the E-score was -0.165.
`ATAGAGAC` gave an E-score of 0.0878.
`GCCAGTAA` gave an E-score of -0.0828.
For `AATTGGGC`, the E-score was 0.00717.
`ACCGACGT` has an E-score of -0.125.
`ACCTGTCA` gave an E-score of -0.0933.

Study 3
Target: PABPC1L2, full length, GST fusion (mouse, UniProt A0ABA7IW68)
Technique: RNAcompete
Form: RNA
Medium: in vitro
Concentration: 20 nM
Setting: 7-mer, probes averaged, single round
Reference: mean of 7-mers
Direction: higher = stronger binding
Construct (chain): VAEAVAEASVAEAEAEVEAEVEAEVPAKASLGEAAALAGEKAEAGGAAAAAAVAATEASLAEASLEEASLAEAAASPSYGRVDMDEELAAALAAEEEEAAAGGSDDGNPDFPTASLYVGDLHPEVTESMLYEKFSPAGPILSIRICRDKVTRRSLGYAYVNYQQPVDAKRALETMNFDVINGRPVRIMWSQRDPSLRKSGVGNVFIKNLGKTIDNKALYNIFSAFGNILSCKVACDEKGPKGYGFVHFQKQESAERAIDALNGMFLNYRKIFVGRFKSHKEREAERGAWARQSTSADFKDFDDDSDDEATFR
For `AGCCAUC`, the 7-mer Z-score was -0.224.
`CUCGCUA` gave a 7-mer Z-score of -0.376.
For `UUCCAGA`, the 7-mer Z-score was -0.179.
The 7-mer Z-score of `GAUUGGU` is reported as -0.224.
`AUACUCA` gave a 7-mer Z-score of -0.133.
`CGGCCGU` gave a 7-mer Z-score of -0.266.
`AACCUCU` has a 7-mer Z-score of -0.19.
`CCGAGUG` gave a 7-mer Z-score of -0.219.
`UAGAGCA` gave a 7-mer Z-score of 0.137.
With `AUACGCG` the 7-mer Z-score was -0.0826.
The 7-mer Z-score of `AAAUAAG` is reported as 2.88.
With `UGUCUGU` the 7-mer Z-score was -0.345.
`UAUAUUG` gave a 7-mer Z-score of -0.128.
`AAAUCUA` gave a 7-mer Z-score of 0.693.
With `CCGUCAA` the 7-mer Z-score was -0.351.
For `GGGGAUA`, the 7-mer Z-score was 0.428.
`UUCAAGU` gave a 7-mer Z-score of -0.253.

Study 4
Target: Histone acetyltransferase KAT6A, winged helix 2, GST fusion (KAT6A, Homo sapiens, UniProt Q92794, residues 85-181)
Technique: protein binding microarray
Form: double-stranded DNA, one strand shown
Medium: in vitro
Concentration: not given
Setting: 8-mer, flanks averaged, mean of 2 arrays, mostly near background
Reference: not given
Direction: higher = stronger binding
Target sequence (chain): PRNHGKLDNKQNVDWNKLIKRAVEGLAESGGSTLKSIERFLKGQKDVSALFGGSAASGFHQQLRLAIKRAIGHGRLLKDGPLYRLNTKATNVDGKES
`TCACCGCA` gave an E-score of 0.0203.
With `CATCGGAA` the E-score was -0.114.
`ACCCACGC` gave an E-score of 0.0467.
The E-score of `CACATAAA` is reported as 0.0146.
The E-score of `CGCGAACC` is reported as 0.0915.
`GGTTAAAA` gave an E-score of -0.051.
With `CTCCACAG` the E-score was -0.0266.
For `AGGGGTTC`, the E-score was -0.14.
The E-score of `ACTCGTGA` is reported as -0.152.
The E-score of `CTATCGTA` is reported as -0.162.
`GAGTCTGA` gave an E-score of -0.0514.
With `ACCTACGG` the E-score was -0.109.
The E-score of `CGACCTCA` is reported as 0.12.
`CCTTGATA` has an E-score of 0.0371.
The E-score of `GTCAGGGA` is reported as -0.106.
With `AGACGGGG` the E-score was 0.0744.
`ACAGAAGA` gave an E-score of -0.0421.
For `CGGTCCAC`, the E-score was -0.037.
For `CCACCCAA`, the E-score was -0.145.
`CTAGCGGA` has an E-score of 0.0156.
The E-score of `CACCTCGG` is reported as 0.0436.

Study 5
Target: RNA binding protein fox-1 homolog 2, RRM domain, GST-SBP tag (RBFOX2, Homo sapiens, UniProt O43251-10, residues 100-194)
Technique: RNA Bind-n-Seq
Form: RNA
Medium: in vitro
Concentration: 365 nM
Setting: natural RNA segment, single round, ends assumed
Reference: no-protein control
Direction: higher = stronger binding
All sequences stand within: GGGAGUUCUACAGUCCGACGAUC … UGGAAUUCUCGGGUGCCAA
Residues (chain): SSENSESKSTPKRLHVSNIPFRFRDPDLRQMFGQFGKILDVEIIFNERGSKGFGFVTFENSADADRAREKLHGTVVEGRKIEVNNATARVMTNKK
`CGGACCUAGGAAGUUGGGGUCUGUAGUAUGCCUGGAUUUUCUAUUAUUCAUGAGAUUUGUACAAACCCUAUACCGGAAUGGAUGCUUCCCUUCCACCUCCCUGAAAUGUA` — result for “RBNS enrichment (R)”: 0.576.
`ACUUUGCCAUAUUUUCACCAUUUGAUUAUGUAGCAAAAUACAUGACAUUUAUUUUUCAUUUAGUUUGAUUAUUCAGUGUCACUGGCGACACGUAGCAGCUUAGACUAAGG`: “RBNS enrichment (R)” 0.299.
`GGACCCCCUGGGAAAGACAUGCAGUGUAGAUAAUGACUUUAGUAGCUCUCCAAUGAGAGCCUGACUGGCUUCUAGAGCAGGCUGUCACAGAAGGGGAGGUAGGGUCGACU` — result for “RBNS enrichment (R)”: 0.474.
`UACUGAUUUACAAUUGAGUAGAUACCAAAAACAGAGUGGCAAGUGUAUUUUAGUAGCAGUUGAGGCAAUUAGUUUUAGGGUGAAUUUUUCACUGUUGAUUUUACUUUAAG` — result for “RBNS enrichment (R)”: 0.418.
For `CCUAGUUUUGUAUUUUGUCCUGUGACUGCCAUGCGUUCCACCAGAAAGCCGCUCUAUUUUGGUCUCUGUGAUAUUUUAAAUGCGUGACAGAAGCAAGCAAAUAAAGUCAG`, “RBNS enrichment (R)” read 0.491.
`AUAUUUUGUAACUUCCAUGUGAGGGUUUUCAGCAUUGAUAUUUGUGCAUUUUCUAAACAGAGAUGAGGUGGUAUCUUCACGUAGAACAUUGGUAUUCGCUUGAGAAAAAA`: “RBNS enrichment (R)” 4.7.
Under “RBNS enrichment (R)”, `CAAAGCUCCUCUUGGGGAAAUGGCAAGUCUUUAGGAUAGGCAAGACCCUGUAUGAAUAGUACCAAAGCAUUACCGCAUGGUAGAGAACACACUCGAUUAAAAAUGUUAAG` is recorded as 0.647.
Under “RBNS enrichment (R)”, `ACCCAUUCCCUGCUUGCGCCUAGGGUGUUUUCCAGAUAGCCCAGAGUUCCAGCUUUGACAGCCUGAUGACCUCCAUUUUCAUAUGAAUGAUGCCUGCACCCCCACACCUC` is recorded as 4.69.
For `UUCAUUCAUCCUUAACGGUGUGGAAGGGUUGAUGGACUGGAAAGCAAGUGGUUGGUUCGCGUUGGCGGGUGACAGGUGCUGCGGUUGGAGACGGUGGGAUGGGAGAAGAG`, “RBNS enrichment (R)” read 0.627.
`UCUUAUAUGCCAGAAUGUAGGCUGGUCCCUAUGUCAUGUCUUCCAUUAAGAACACUAAAAAGUCCUUGCAAGAAUGGAGAUAUGCAUUCAAGAGAGGUGCUAUCACAUAG`: “RBNS enrichment (R)” 0.956.
`AGUCAUAUGUUGUUUGGCAUUCUGCCUAACCCAGUCUCCCUUCCCAGAGUCAUGGACCUCUCUGUUGCUUUAUGUUGGUCAUGUCCCUGACUGUCCAGAUUUCCUCCCAC`: “RBNS enrichment (R)” 0.652.
`GCUAUCCUUGGCUACACAGUGAAUUUGAGACCAGCUUGGGCUCAUGAGACCCUGUCUCAAGGAAAAAUCAAAAGUUCUUUACAGAUGUGUGCGUGCGGGCGUCAGUUUCC` — result for “RBNS enrichment (R)”: 0.253.

A few entries again (study 2):
With `CCGCTTCG` the E-score was -0.304.
For `AAGCTTCA`, the E-score was -0.0526.
For `AAATATCG`, the E-score was 0.256.
With `AGCTTCCT` the E-score was 0.0253.
For `GGGATTAA`, the E-score was -0.0134.
The E-score of `ATTGGATC` is reported as 0.122.
With `ATTTACGC` the E-score was 0.159.
